Experimental data of several laboratories.
Every numbered part comes from another study and shows a few of its results, in no order. Substitutions count along the parent as printed.

Study 1 — technique: protein-binding microarray; form: double-stranded DNA, one strand shown; matrix: in vitro; concentration: not given; reading: higher = stronger binding; measurement: E-score
Target: Protein C-ets-1 (ETS1, Homo sapiens, UniProt P14921, residues 1-441, full length assumed)
Chain of UniProt P14921 (whole entry, looked up): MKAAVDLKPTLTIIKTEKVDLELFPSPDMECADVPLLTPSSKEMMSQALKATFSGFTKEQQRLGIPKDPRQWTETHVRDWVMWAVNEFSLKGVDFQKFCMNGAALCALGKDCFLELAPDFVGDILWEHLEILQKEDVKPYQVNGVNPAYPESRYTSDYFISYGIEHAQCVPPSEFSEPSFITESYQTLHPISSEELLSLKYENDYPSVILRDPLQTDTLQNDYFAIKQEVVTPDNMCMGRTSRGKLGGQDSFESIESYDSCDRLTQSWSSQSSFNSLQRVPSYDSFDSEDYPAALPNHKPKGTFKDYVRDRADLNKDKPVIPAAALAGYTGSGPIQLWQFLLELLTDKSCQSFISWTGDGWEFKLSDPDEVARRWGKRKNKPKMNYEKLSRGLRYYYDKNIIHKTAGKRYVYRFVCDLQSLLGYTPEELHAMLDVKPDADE
Notes: k-mer, scored over probes, only values ≥0.25
AGAGCGGA: 0.334
GGAAACGA: 0.422
CGCTTCCG: 0.48
AGCATCCT: 0.407
CGGAAACA: 0.473
AGGATACA: 0.265
CAAATCCG: 0.316
CGGAAGCC: 0.47
CCACACAC: 0.291
CAAGGAAG: 0.408

Study 2 — technique: protein binding microarray; form: double-stranded DNA, one strand shown; matrix: in vitro; concentration: not given; relative to: not given; reading: higher = stronger binding; measurement: E-score
Target: Histone acetyltransferase KAT6A, both winged helices, GST fusion (KAT6A, Homo sapiens, UniProt Q92794, residues 1-181)
Notes: 8-mer, flanks averaged, mean of 2 arrays, mostly near background
Target sequence (chain): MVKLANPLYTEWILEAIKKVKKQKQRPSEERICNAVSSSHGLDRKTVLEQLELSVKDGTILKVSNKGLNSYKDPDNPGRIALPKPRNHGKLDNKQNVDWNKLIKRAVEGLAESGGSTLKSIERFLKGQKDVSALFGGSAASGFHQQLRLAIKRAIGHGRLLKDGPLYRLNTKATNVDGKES
GACCGTGA: 0.119
GATGACCC: -0.146
GCCAGTCA: -0.126
ACCTTACG: 0.165
CCATCACG: 0.03
TAGATCTA: -0.0247
CAGCGCTA: 0.253
GCAAGGCC: 0.0472
ACCTAGGC: 0.0092
CTGAACTC: -0.304
CGTCGGAA: 0.273
AAAAGTCG: -0.116
ACCATATA: -0.137

Study 3 — target: CCNE1, cyclin fold, Cln2 fusion (human); technique: yeast growth competition, sequencing; matrix: yeast; notes: weak parent motif; relative to: not given; reading: higher = stronger binding; measurement: normalised enrichment score
Starting sequence: MICAL3 docking peptide (human); LQLRRQLSFSEDS
F9Q: 0.0509
R5A: 0.0481
L3Y: 3.2
Q6P: 0.176
L7A: 0.219
F9G: -0.0742
R5K: 0.096
D12W: 0.995
F9K: 0.153
L3E: 0.177

Mixed results
PhoQ, residues 284 288 289 292 302 303 QWQEDG — fold induction (PhoP, residues 12 14 15 18 19 SFCSL (Escherichia coli, UniProt P23836); Sort-seq, item: YFP reporter; E. coli; PhoQ-PhoP variant library, together with: 10 µM Mg2+; relative to: high Mg2+ state, higher = stronger signaling): 15.8

A few entries again (study 3):
F9Q: 0.0509
R5A: 0.0481
L3Y: 3.2
Q6P: 0.176
L7A: 0.219
